Experimental data of several laboratories.
Lines come from different studies, so protocols differ. Several values in a cell are separate wells, animals, samples, runs or records. ± gives the spread as reported.
GAP50: Glideosome-associated protein 50 (GAP50, Plasmodium falciparum, UniProt Q8I2X3)
Maoa: Amine oxidase [flavin-containing] A (Maoa, Rattus norvegicus, UniProt P21396)
NADH dehydrogenase [ubiquinone] iron-sulfur protein 7, mitochondrial/NADH dehydrogenase [ubiquinone] iron-sulfur protein 2, mitochondrial/MT-ND1: NADH dehydrogenase [ubiquinone] iron-sulfur protein 7, mitochondrial/NADH dehydrogenase [ubiquinone] iron-sulfur protein 2, mitochondrial/MT-ND1 (Homo sapiens, UniProt O75251+O75306+P03886)
PDE1C isoform PDE1C2: Dual specificity calcium/calmodulin-dependent 3',5'-cyclic nucleotide phosphodiesterase 1C, isoform PDE1C2 (PDE1C, Homo sapiens, UniProt Q14123)
FFAR4: Free fatty acid receptor 4 (FFAR4, Homo sapiens, UniProt Q5NUL3)
TRPM8: Transient receptor potential cation channel subfamily M member 8 (TRPM8, Homo sapiens, UniProt Q7Z2W7)

Structure (SMILES) | target | assay | system | setting | how to read | endpoint | result
Cc1ccc(S(=O)(=O)Nc2ccc(CN3CCN(C(=O)c4cccc(C#N)c4)CC3)cc2)cc1 | GAP50 | binding, surface plasmon resonance |  | 1:1 binding model |  | kon | 40700 M⁻¹ s⁻¹
CCCCC[C@H](O)/C=C/[C@H]1C(=O)C[C@H](O)[C@@H]1C/C=C\CCCC(=O)O | PTGDR (Homo sapiens, UniProt Q13258, D72N) | agonist |  | 1.25 µM |  | activation | 88.4%
COc1ccc(CN)cc1 | Maoa | substrate |  | pH 7.5, 25 °C, α,α-protio substrate |  | kcat | 0.153 s⁻¹
Nc1nc2c(ncn2[C@@H]2O[C@H](COP(=O)(O)O)[C@@H](O)[C@H]2O)c(=O)[nH]1 | GUK1 (Homo sapiens, UniProt Q16774, E72A) | enzyme activity, NADH-coupled |  | 2000 µM |  | reaction rate | 1.26 s⁻¹ and 0.803 s⁻¹ and -0.123 s⁻¹
CC[C@@H](C)[C@@H](NC(=O)[C@@H](Cc1ccc(O)cc1)NC(=O)[C@H]1CCCN1C(=O)[C@@H](CCCNC(=N)N)NC(=O)[C@H](N)Cc1c[nH]cn1)C(=O)N[C@H](C)C(=O)N[C@H](Cc1c[nH]cn1)C(=O)N[C@H](CCCNC(=N)N)C(=O)N[C@@H](C(=O)N[C@H](Cc1ccc(O)cc1)C(=O)N[C@H](CO)C(=O)N[C@H](Cc1ccccc1)C(N)=O)C(C)C | Transferrin receptor protein 1 (Tfrc, Mus musculus, UniProt Q62351) | flow cytometry | DC2.4 | 6 h, pH 7.4, unit not given | reference: 0 h | surface TFRC expression | 0.846
NC(=O)NOCCCCCCCCCCCCCC[P+](c1ccccc1)(c1ccccc1)c1ccccc1.O=C([O-])C(F)(F)F | NADH dehydrogenase [ubiquinone] iron-sulfur protein 7, mitochondrial/NADH dehydrogenase [ubiquinone] iron-sulfur protein 2, mitochondrial/MT-ND1 | complex I-dependent respiration, Seahorse XF96 | HCT-116 | 20 µM, 24 h | reference: control | oxygen consumption rate | 0.11 ± 2.19%
Cc1cc2c(c(=O)[nH]1)C(=O)O/C2=C\c1ccc(F)cc1OC(C)C | PDE1C isoform PDE1C2 | enzyme activity, inhibitor |  | with: 3H-cGMP substrate |  | binding free energy | -8.38 kcal/mol
CC[C@@H]1[C@H](F)C(=O)N[C@@H]1COc1nccc2cc(C(N)=O)c(OC)cc12 | CAMK1D (Homo sapiens, UniProt Q8IU85) | ATP-site probe binding, ActivX profiling | THP-1 cell lysate | 0.01 mM, Lys2 site |  | inhibition | -1.8%
O=c1cc(NCCCCCCCO)[nH]c(=O)[nH]1 | FFAR4 | β-arrestin recruitment | CHO | 10 µM | reference: 30 µM TUG-891 | agonist effect | 0%
NCc1ccc(C(F)(F)F)cc1 | Maoa |  |  | pKa-corrected |  | log Kd | -4.8 M
CC[C@H](C)[C@H](NC(=O)[C@H](C)NC(=O)[C@H](C)NC(=O)[C@@H](NC(=O)[C@H](CC(=O)O)NC(=O)[C@H](CS)NC(=O)[C@H](CC(C)C)NC(=O)[C@H](CCC(=O)O)NC(=O)[C@H](C)NC(=O)[C@H](CC(=O)O)NC(=O)[C@H](CO)NC(=O)[C@H](C)NC(=O)[C@H](CC(N)=O)NC(=O)[C@H](C)NC(=O)[C@H](CC(C)C)NC(=O)[C@H](C)NC(=O)[C@H](CCC(=O)O)NC(=O)[C@H](CCC(=O)O)NC(=O)[C@H](CC(C)C)NC(=O)[C@H](CCC(=O)O)NC(=O)[C@@H]1CCCN1C(=O)[C@H](CCC(=O)O)NC(=O)[C@H](CC(C)C)NC(=O)[C@@H](NC(=O)[C@@H](NC(=O)[C@@H](N)CO)C(C)C)[C@@H](C)O)[C@@H](C)CC)C(=O)N[C@@H](CC(C)C)C(=O)NCC(=O)N[C@@H](CCSC)C(=O)N[C@@H](Cc1c[nH]cn1)C(=O)N[C@H](C(=O)N[C@@H](CC(C)C)C(=O)N[C@@H](CCSC)C(=O)N[C@@H](CO)C(=O)N[C@@H](CC(N)=O)C(=O)N[C@@H](CCC(N)=O)C(=O)O)[C@@H](C)O | Tropomyosin alpha-1 chain (Tpm1, Rattus norvegicus, UniProt P04692, K15N) | circular dichroism, refers to: Kd |  | Tpm1.1 K15N mutation | reference: WT peptide over K15N peptide | affinity decrease | ~2.5 fold
COc1ccccc1C(=O)NCc1ccc(CNS(=O)(=O)c2ccc(C)cc2)cc1 | CXCR4 (Homo sapiens, UniProt P61073) | binding, inhibitor, competitive binding | MDA-MB-231 | with: biotinylated TN14003 |  | EC | 100 nM
O=C(NC1CCC1)c1ccc2nc(-c3cccc(NS(=O)(=O)NCCN4CCCCC4)c3)cn2c1 | Protein ENL (MLLT1, Homo sapiens, UniProt Q03111) | degrader, immunoblot, refers to: MLLT1 |  | 10 µM, 12 h | reference: DMSO control | protein level | 8%
NC(=O)NO | NADH dehydrogenase [ubiquinone] iron-sulfur protein 7, mitochondrial/NADH dehydrogenase [ubiquinone] iron-sulfur protein 2, mitochondrial/MT-ND1 | complex I-dependent respiration, Seahorse XF96 | HCT-116 | 30 µM, 24 h | reference: control | oxygen consumption rate | 77 ± 1.79%
O=c1cc(NCCOc2ccccc2)[nH]c(=O)[nH]1 | FFAR4 | agonist, β-arrestin recruitment | CHO cells | 10 µM |  | activation | 0 ± 1%
NC(=O)NOCCCCCCCCCCCCCCCCCCCC[P+](c1ccccc1)(c1ccccc1)c1ccccc1.O=C([O-])C(F)(F)F | NADH dehydrogenase [ubiquinone] iron-sulfur protein 7, mitochondrial/NADH dehydrogenase [ubiquinone] iron-sulfur protein 2, mitochondrial/MT-ND1 | complex I-dependent respiration, Seahorse XF96 | HCT-116 | 5 µM, 24 h | reference: control | oxygen consumption rate | 6.26 ± 2.75%
O=C(CNc1cccc2c1C(=O)N(C1CCC(=O)NC1=O)C2=O)NCCCCCCN1CCc2c(c3ccccc3n2Cc2ccc(C(=O)NO)cc2)C1 (stereo not drawn) | HDAC10 (Homo sapiens, UniProt Q969S8) | degrader, western blot | MM1.S | 5 µM, 24 h |  | degradation | 88%

Structure (SMILES) | target | assay | system | setting | how to read | endpoint | result
[O-][S+]1CCCCS1 (stereo not drawn) | SOD1 (Homo sapiens, UniProt P00441, G94A) | intact protein LC-MS | SOD1 G93A transgenic mice, whole blood | intravenous, 10 mg/kg, 168 h, mean of two mice |  | target engagement | 5.26%
CCCCCCCCC(=O)c1cc(O)c(O)c(O)c1 | Nuclear receptor subfamily 4 group A member 2, LBD (Homo sapiens, UniProt P43354) | reporter gene, Gal4 hybrid reporter |  | 10 µM | reference: vehicle | activation | 2.4 fold
O=C(ON1C(=O)CCC1=O)c1cc(C(F)(F)F)cc(C(F)(F)F)c1 | CD209 antigen (CD209, Homo sapiens, UniProt Q9NNX6) | covalent labelling, intact protein MS |  | 50 µM |  | kobs | 0.163 min⁻¹
COc1cc(O)c2c(c1)oc(=O)c1c3cc(O)c(O)cc3oc21 | MAL12 (Saccharomyces cerevisiae S288c, UniProt P53341) | circular dichroism |  | molar ratio 1:1 |  | β-Sheet content | 40.6%
CCCCCCCCNc1cc(=O)[nH]c(=O)[nH]1 | FFAR4 | antagonist, β-arrestin recruitment | CHO cells | 10 µM, with: 4 µM TUG-891 |  | inhibition | 22 ± 9%
COc1cc(Nc2ncc3c(n2)-c2ccc(Cl)cc2C(c2c(F)cccc2OC)=NC3)ccc1C(=O)O | MERTK | kinase activity |  | 1 µM |  | remaining activity | 85%
O=C(COc1cccc(Cl)c1Cl)NCc1cccs1 | Kir3.1/Kir3.2 (Homo sapiens, UniProt P48051+P48549) | activator, thallium flux | HEK293 | concentration not given |  | activity | inactive
O=c1cc(N2CCC(Cc3ccccc3)CC2)[nH]c(=O)[nH]1 | FFAR4 | agonist, β-arrestin recruitment | CHO cells | 10 µM | reference: 30 µM TUG-891 | agonist effect | 0 ± 1%
O=C1NC(=O)/C(=C/c2ccc3c(c2)OC(F)(F)O3)S1 | TRPM8 | antagonist | HEK293 | 5 µM | reference: control | remaining activity | 93.4 ± 4.59%
O=c1cc(-c2ccc(O)c(O)c2)oc2cc(O[C@@H]3O[C@H](CO)[C@@H](O)[C@H](O)[C@H]3O)cc(O)c12 | Heat shock protein HSP 90-alpha, N-terminal domain (HSP90AA1, Homo sapiens, UniProt P07900) | SPR, two-state model | N-terminal domain |  |  | kon | 47100 ± 45800 M⁻¹ s⁻¹
CC1=C(/C=C/C(C)=C/C=C/C(C)=C/C=C/C=C(C)/C=C/C=C(C)/C=C/C2=C(C)CCCC2(C)C)C(C)(C)CCC1 | Beta-lactoglobulin (LGB, Bos taurus, UniProt P02754) | fluorescence quenching |  | concentration not given, 308 K |  | number of binding sites | 1.49
Cc1cc2c(c(=O)[nH]1)C(=O)O/C2=C\c1cc(Cl)ccc1OC(C)C | PDE1C isoform PDE1C2 | enzyme activity, inhibitor |  | with: 3H-cGMP substrate |  | binding free energy | -10 kcal/mol
CCCCC(CC)CNc1cc(=O)[nH]c(=O)[nH]1 (racemic) | FFAR4 | agonist, β-arrestin recruitment | CHO cells | 10 µM |  | activation | -1%
C=CC(=O)N1CCC(C(=O)NCC(=O)N2CCN(c3nc(-c4cnc(N)nc4C(F)F)nc(N4CCOCC4)n3)CC2)CC1 | PAK2 (Homo sapiens, UniProt Q13177) | KINOMEscan |  | 1 µM |  | remaining binding | 100%
Nc1ncnc2c1cnn2-c1ccccc1 | TRPM8 | antagonist | HEK293 | 5 µM | reference: control | remaining activity | 94.1 ± 2.51%
CNC(=O)[C@@H]1Cc2c([nH]c3cc(Cl)ccc23)C2(CCN(CCc3ccccc3)CC2)N1 | GAP50 | binding, surface plasmon resonance |  | 1:1 binding model |  | koff | 0.406 s⁻¹

Repeated from above:
Structure (SMILES) | target | assay | system | setting | how to read | endpoint | result
Cc1cc2c(c(=O)[nH]1)C(=O)O/C2=C\c1cc(Cl)ccc1OC(C)C | PDE1C isoform PDE1C2 | enzyme activity, inhibitor |  | with: 3H-cGMP substrate |  | binding free energy | -10 kcal/mol
CCCCCCCCC(=O)c1cc(O)c(O)c(O)c1 | Nuclear receptor subfamily 4 group A member 2, LBD (Homo sapiens, UniProt P43354) | reporter gene, Gal4 hybrid reporter |  | 10 µM | reference: vehicle | activation | 2.4 fold
